{"data": "Experimental data collected from several papers", "note": "Parts stem from different laboratories: compare values within a part only. Positions count from the first letter of the parent shown."}
{"data": "Set 1", "target": "CCNB3, cyclin fold, Cln2 fusion (human)", "method": "yeast growth competition, sequencing", "sample": "yeast", "notes": "strong parent motif", "reference": "not given", "direction": "higher = stronger binding", "starting sequence": "SCAPER docking peptide (human); SNARRSLNFGGST; partner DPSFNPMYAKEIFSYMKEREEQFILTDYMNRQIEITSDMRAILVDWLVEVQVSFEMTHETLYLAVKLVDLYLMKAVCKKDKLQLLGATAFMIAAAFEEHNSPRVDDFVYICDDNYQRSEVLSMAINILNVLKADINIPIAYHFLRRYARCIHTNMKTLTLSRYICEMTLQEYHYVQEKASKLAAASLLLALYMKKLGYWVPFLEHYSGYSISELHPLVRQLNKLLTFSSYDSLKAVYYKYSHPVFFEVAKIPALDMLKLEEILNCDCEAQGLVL"}
{"Change": "SNARRSLRFGGST [N8R]", "normalised enrichment score": 0.472}
{"Change": "SNAVRSLNFGGST [R4V]", "normalised enrichment score": 0.161}
{"Change": "SNARCSLNFGGST [R5C]", "normalised enrichment score": 0.212}
{"Change": "SNARRSLNFGVST [G11V]", "normalised enrichment score": 1.69}
{"Change": "SNARRSLNSGGST [F9S]", "normalised enrichment score": -0.0828}
{"Change": "SNAMRSLNFGGST [R4M]", "normalised enrichment score": -0.0082}
{"Change": "SNARFSLNFGGST [R5F]", "normalised enrichment score": 0.715}
{"Change": "LNARRSLNFGGST [S1L]", "normalised enrichment score": 1.68}
{"Change": "SNARRSLLFGGST [N8L]", "normalised enrichment score": 0.333}
{"Change": "SNARPSLNFGGST [R5P]", "normalised enrichment score": 0.181}
{"Change": "SNARRLLNFGGST [S6L]", "normalised enrichment score": 0.957}
{"Change": "SNARRSLNAGGST [F9A]", "normalised enrichment score": -0.00782}
{"Change": "SPARRSLNFGGST [N2P]", "normalised enrichment score": 1.38}
{"Change": "SKARRSLNFGGST [N2K]", "normalised enrichment score": 1.18}
{"Change": "SNARRSLNFDGST [G10D]", "normalised enrichment score": 1.64}
{"Change": "SNARRSLNFGGSE [T13E]", "normalised enrichment score": 1.47}
{"Change": "SNARRELNFGGST [S6E]", "normalised enrichment score": -0.0454}
{"data": "Set 2", "target": "ABI1, truncated, D143A, DHFR fusion (Arabidopsis thaliana)", "method": "DHFR PCA, deep sequencing", "sample": "yeast", "notes": "methotrexate growth selection, single substitutions", "together with": "(+)-ABA 0.39 µM", "reference": "wild-type fitted maximum", "direction": "higher = stronger binding", "starting sequence": "PYL1, truncated, DHFR fusion (Arabidopsis thaliana); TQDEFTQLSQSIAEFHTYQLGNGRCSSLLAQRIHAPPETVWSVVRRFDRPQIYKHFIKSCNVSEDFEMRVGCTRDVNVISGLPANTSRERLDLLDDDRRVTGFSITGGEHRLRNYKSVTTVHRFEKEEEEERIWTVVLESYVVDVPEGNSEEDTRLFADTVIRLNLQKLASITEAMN"}
{"Change": "T120E", "relative binding score [%]": -13.2}
{"Change": "N85D", "relative binding score [%]": 21.7}
{"Change": "T86K", "relative binding score [%]": 17.5}
{"Change": "G102D", "relative binding score [%]": 12.2}
{"Change": "S140W", "relative binding score [%]": 7.73}
{"Change": "H55K", "relative binding score [%]": 48.2}
{"Change": "L28K", "relative binding score [%]": 3.52}
{"Change": "T39F", "relative binding score [%]": 6.57}
{"Change": "R99D", "relative binding score [%]": -1.76}
{"Change": "F66C", "relative binding score [%]": 16.5}
{"Change": "P83M", "relative binding score [%]": -4.28}
{"Change": "G108H", "relative binding score [%]": -3.56}
{"Change": "L91Y", "relative binding score [%]": 11.6}
{"Change": "V70M", "relative binding score [%]": 2.87}
{"Change": "L169H", "relative binding score [%]": 1.21}
{"Change": "K116Q", "relative binding score [%]": 23.9}
{"Change": "A35G", "relative binding score [%]": -0.985}
{"data": "Set 3", "target": "Histone acetyltransferase KAT6A, winged helix 1, GST fusion (KAT6A, Homo sapiens, UniProt Q92794, residues 1-85)", "method": "protein binding microarray", "molecule type": "double-stranded DNA, one strand shown", "sample": "in vitro", "concentration": "not given", "notes": "8-mer, flanks averaged, mean of 2 arrays, mostly near background", "reference": "not given", "direction": "higher = stronger binding", "Target sequence (chain)": "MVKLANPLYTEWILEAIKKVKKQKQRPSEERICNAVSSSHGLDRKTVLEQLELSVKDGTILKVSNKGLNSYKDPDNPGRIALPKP"}
{"Oligonucleotide": "CGCTTGGA", "E-score": 0.026}
{"Oligonucleotide": "GCGGCTGA", "E-score": 0.245}
{"Oligonucleotide": "CGCAGGAC", "E-score": 0.159}
{"Oligonucleotide": "CTATGTCC", "E-score": -0.0444}
{"Oligonucleotide": "ATGCGAGC", "E-score": 0.00464}
{"Oligonucleotide": "CGCGCACC", "E-score": 0.4}
{"Oligonucleotide": "CTACTGGC", "E-score": 0.023}
{"Oligonucleotide": "AACTGCCA", "E-score": -0.156}
{"Oligonucleotide": "CATAAAGA", "E-score": -0.13}
{"Oligonucleotide": "ATCATCAC", "E-score": -0.206}
{"Oligonucleotide": "GGCTCCAA", "E-score": -0.0206}
{"Oligonucleotide": "ACGTCCCG", "E-score": 0.265}
{"Oligonucleotide": "AGCAGATC", "E-score": -0.288}
{"data": "Set 4", "target": "Sal-like protein 4, full length isoform A (SALL4, Homo sapiens, UniProt Q9UJQ4, residues 1-1053)", "method": "universal PBM", "molecule type": "double-stranded DNA, one strand shown", "sample": "in vitro", "concentration": "600 nM", "notes": "8-mer, flanks averaged, mean of replicates", "direction": "higher = stronger binding", "chain of UniProt Q9UJQ4 (whole entry, looked up)": "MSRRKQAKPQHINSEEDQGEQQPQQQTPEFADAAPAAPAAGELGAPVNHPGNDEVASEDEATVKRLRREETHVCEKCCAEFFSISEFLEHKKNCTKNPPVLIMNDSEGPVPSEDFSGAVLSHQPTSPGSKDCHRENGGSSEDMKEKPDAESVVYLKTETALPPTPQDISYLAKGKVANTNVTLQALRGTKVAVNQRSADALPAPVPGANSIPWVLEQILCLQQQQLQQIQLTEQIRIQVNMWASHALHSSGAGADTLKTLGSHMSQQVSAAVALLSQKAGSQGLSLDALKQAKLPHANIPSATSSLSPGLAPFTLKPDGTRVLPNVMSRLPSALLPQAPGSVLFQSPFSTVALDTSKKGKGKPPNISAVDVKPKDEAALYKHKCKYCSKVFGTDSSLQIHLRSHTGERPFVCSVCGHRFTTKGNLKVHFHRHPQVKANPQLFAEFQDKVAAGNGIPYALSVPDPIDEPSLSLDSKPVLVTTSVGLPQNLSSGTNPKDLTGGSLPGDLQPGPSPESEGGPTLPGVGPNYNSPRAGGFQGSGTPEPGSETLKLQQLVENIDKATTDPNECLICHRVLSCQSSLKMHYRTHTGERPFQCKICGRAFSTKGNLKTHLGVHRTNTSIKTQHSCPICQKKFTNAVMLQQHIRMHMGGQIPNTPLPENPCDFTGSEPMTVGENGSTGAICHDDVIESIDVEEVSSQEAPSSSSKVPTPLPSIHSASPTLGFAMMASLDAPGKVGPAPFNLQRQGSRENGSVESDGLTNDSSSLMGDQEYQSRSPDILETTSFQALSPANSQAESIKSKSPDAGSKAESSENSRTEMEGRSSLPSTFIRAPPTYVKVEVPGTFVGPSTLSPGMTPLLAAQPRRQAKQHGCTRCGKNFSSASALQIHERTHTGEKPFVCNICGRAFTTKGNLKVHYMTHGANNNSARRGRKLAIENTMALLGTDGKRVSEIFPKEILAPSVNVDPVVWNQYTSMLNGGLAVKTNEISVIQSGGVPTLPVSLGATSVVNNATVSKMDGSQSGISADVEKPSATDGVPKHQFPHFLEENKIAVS"}
{"Oligonucleotide": "GCCCGTAC", "E-score": -0.231}
{"Oligonucleotide": "AATAGATG", "E-score": 0.178}
{"Oligonucleotide": "GGTCAGGA", "E-score": -0.13}
{"Oligonucleotide": "CTTTTTAC", "E-score": 0.166}
{"Oligonucleotide": "CTCGCTAA", "E-score": 0.0222}
{"Oligonucleotide": "ATAGGTAG", "E-score": 0.0885}
{"Oligonucleotide": "CGTTCGAG", "E-score": -0.135}
{"Oligonucleotide": "CACTCATA", "E-score": 0.221}
{"Oligonucleotide": "ATCATGCA", "E-score": 0.145}
{"Oligonucleotide": "CACGCATG", "E-score": -0.194}
{"Oligonucleotide": "ACAGAGAT", "E-score": 0.19}
{"note": "Excerpt of the above (set 3):"}
{"Oligonucleotide": "CTATGTCC", "E-score": -0.0444}
{"Oligonucleotide": "ATGCGAGC", "E-score": 0.00464}
{"Oligonucleotide": "AGCAGATC", "E-score": -0.288}
{"Oligonucleotide": "GGCTCCAA", "E-score": -0.0206}
{"Oligonucleotide": "ATCATCAC", "E-score": -0.206}
{"Oligonucleotide": "CATAAAGA", "E-score": -0.13}
{"Oligonucleotide": "CGCAGGAC", "E-score": 0.159}
{"Oligonucleotide": "CTACTGGC", "E-score": 0.023}
